Published values from different studies.
Each numbered part is a random draw from the data of one study; scales do not carry over between parts. Positions count from the first letter of the parent shown.

Study 1 — method: DHFR PCA, deep sequencing; matrix: yeast; added: (+)-ABA 58 µM; baseline: wild-type fitted maximum; reading: higher = stronger binding
Target: ABI1, truncated, D143A, DHFR fusion (Arabidopsis thaliana)
Setting: methotrexate growth selection, single substitutions
Parent: PYL1, truncated, DHFR fusion (Arabidopsis thaliana); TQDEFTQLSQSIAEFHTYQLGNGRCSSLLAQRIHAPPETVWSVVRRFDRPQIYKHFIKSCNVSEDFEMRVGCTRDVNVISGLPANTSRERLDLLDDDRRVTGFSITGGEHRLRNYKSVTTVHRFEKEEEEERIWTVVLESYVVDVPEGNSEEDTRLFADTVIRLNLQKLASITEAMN; partner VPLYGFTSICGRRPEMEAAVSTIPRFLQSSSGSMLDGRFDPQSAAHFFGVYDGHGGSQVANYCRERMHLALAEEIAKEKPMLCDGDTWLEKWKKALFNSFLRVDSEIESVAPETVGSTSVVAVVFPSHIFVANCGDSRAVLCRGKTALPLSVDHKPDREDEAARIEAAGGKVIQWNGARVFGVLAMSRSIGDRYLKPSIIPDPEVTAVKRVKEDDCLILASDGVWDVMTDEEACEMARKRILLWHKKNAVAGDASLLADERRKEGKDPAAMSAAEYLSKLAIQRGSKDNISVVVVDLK
`I79Y` — result for “relative binding score”: 89.7%.
For `S171Y`, “relative binding score” read 75.4%.
For `N165T`, “relative binding score” read 11.2%.
Under “relative binding score”, `S80Y` is recorded as 29.7%.
`R49D`: “relative binding score” 45.6%.
`S42K` — result for “relative binding score”: 97.1%.
`T39L` — result for “relative binding score”: 91.4%.
`V137G` — result for “relative binding score”: -3.39%.
Under “relative binding score”, `R132M` is recorded as 91.1%.
`A30P`: “relative binding score” 37.9%.
`S140I`: “relative binding score” -14.3%.
`I162C`: “relative binding score” 64.8%.
`H16W`: “relative binding score” -0.588%.
Under “relative binding score”, `G81Y` is recorded as 19.1%.
For `T154A`, “relative binding score” read 66%.

Study 2 — method: protein-binding microarray; molecule type: double-stranded DNA, one strand shown; matrix: in vitro; tested at: 250 nM; setting: 60-bp whole probe; added: salmon DNA 0.4 mg/ml; baseline: random background probes; reading: higher = stronger binding; constant ends, left off below: GCCTAGCAC … GTCTTGATTCGCTTGACGCTGCTG
Target: Interferon regulatory factor 7, full length, phosphomimetic (IRF7, Homo sapiens, UniProt Q92985, residues 1-503, S101K/S471D/S472D/S475D/S476D/S477D/S483D/S484D/S487D)
Sequence of UniProt Q92985 (whole entry, unmodified, looked up): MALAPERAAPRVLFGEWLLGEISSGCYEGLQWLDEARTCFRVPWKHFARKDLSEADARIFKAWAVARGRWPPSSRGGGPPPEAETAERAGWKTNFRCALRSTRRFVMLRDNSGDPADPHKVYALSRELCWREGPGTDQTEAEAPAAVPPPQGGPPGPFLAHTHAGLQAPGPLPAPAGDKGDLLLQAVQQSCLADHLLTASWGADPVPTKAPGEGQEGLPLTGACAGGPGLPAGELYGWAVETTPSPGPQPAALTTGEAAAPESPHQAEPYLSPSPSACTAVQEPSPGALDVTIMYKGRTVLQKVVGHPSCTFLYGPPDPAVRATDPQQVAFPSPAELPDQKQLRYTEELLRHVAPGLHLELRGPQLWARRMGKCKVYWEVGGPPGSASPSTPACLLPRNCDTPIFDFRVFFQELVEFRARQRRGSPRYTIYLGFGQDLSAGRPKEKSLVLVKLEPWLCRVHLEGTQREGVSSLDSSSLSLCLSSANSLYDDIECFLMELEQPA
`TTAGGACTGCTTCTCCTTGAGTGCTAG` has a log fluorescence of 0.421 z-score.
`GACCGTCTCGGTATCGGGACGTGCTAG` has a log fluorescence of 0.913 z-score.
For `TCATCTTTGCAGATAAAACTGTGCTAG`, the log fluorescence was 0.389 z-score.
The log fluorescence of `TTAGGACTGGGACTGGGTGAGTGCTAG` is reported as -0.0586 z-score.
With `TATCAGCAAACTTTTCTTGAGTGCTAG` the log fluorescence was -0.109 z-score.
With `GACGGTATCGACACTGGGGATGTGCTA` the log fluorescence was -0.56 z-score.
`TTAGGTCTCCATATCCTTTAGTGCTAG` gave a log fluorescence of 0.687 z-score.
With `CCCATTCTGAATTCGAATGCGTGCTAG` the log fluorescence was 0.902 z-score.
For `TTAGGTATCGACTTACGGTTAGTGCTA`, the log fluorescence was 2.17 z-score.
The log fluorescence of `GACGGTTTCGGCTCCGGGACGTGCTAG` is reported as 3.29 z-score.
For `TTAGAACTGGGGTATCGAATAGTGCTA`, the log fluorescence was -0.311 z-score.
With `ATCCTTGTCCCTCCGGGAGCGTGCTAG` the log fluorescence was 0.398 z-score.
`TCATTTTCCCCCCTCACACTGTGCTAG` gave a log fluorescence of 2.46 z-score.
The log fluorescence of `TTAGATTCCAGTTTCCATTAGTGCTAG` is reported as 5.07 z-score.
`ATCCATCTCAAGTAGCCTAGCGTGCTA` gave a log fluorescence of -0.133 z-score.
The log fluorescence of `TTAGAACTGGGGCATCGATTAGTGCTA` is reported as -0.447 z-score.
`GACGGTATGCTTATCCTGACGTGCTAG` gave a log fluorescence of -0.71 z-score.
`GACGATTTCAATTCCGAGACGTGCTAG` has a log fluorescence of 0.357 z-score.

Study 3 — method: protein binding microarray; molecule type: double-stranded DNA, one strand shown; matrix: in vitro; tested at: not given; baseline: not given; reading: higher = stronger binding
Target: Histone acetyltransferase KAT6A, winged helix 1, GST fusion (KAT6A, Homo sapiens, UniProt Q92794, residues 1-85)
Setting: 8-mer, flanks averaged, mean of 2 arrays, mostly near background
Construct (chain): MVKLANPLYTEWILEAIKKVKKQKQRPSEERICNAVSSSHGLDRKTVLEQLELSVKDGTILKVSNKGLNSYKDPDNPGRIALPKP
`ATTCCATA` has an E-score of -0.169.
The E-score of `GCACTTCC` is reported as 0.0375.
`CGAGGATC` has an E-score of -0.102.
With `AAGGCTAA` the E-score was -0.0801.
The E-score of `TCTATACA` is reported as -0.139.
For `GTAAGATA`, the E-score was -0.02.
`GATCTTGA` has an E-score of -0.17.
For `AAAGAGTC`, the E-score was -0.0247.
The E-score of `AATTATGC` is reported as 0.0354.
The E-score of `AGGAACCT` is reported as -0.136.
`TATAATGA` has an E-score of -0.108.
`CATACGAC` has an E-score of -0.106.
`CCCGGCAA` has an E-score of 0.26.
The E-score of `CCCTTCTA` is reported as -0.0826.
The E-score of `ACAAGGGT` is reported as -0.108.
The E-score of `GGGATAAA` is reported as -0.106.
With `GATCTTCA` the E-score was -0.0997.
The E-score of `TACCTCAA` is reported as -0.172.
For `AGGCGAAC`, the E-score was 0.119.
The E-score of `CGTCTAAA` is reported as -0.046.
`AAAGTGCA` has an E-score of -0.143.
For `AATCCCTG`, the E-score was -0.2.
For `GAAGTGAA`, the E-score was -0.0711.
`GCGTGCGA` gave an E-score of 0.285.
The E-score of `GAATTCAA` is reported as -0.199.

Study 4 — method: RNA Bind-n-Seq; molecule type: RNA; matrix: in vitro; tested at: 365 nM; baseline: no-protein control; reading: higher = stronger binding
Target: RNA binding protein fox-1 homolog 2, RRM domain, GST-SBP tag (RBFOX2, Homo sapiens, UniProt O43251-10, residues 100-194)
Setting: natural RNA segment, single round, ends assumed
Target sequence (chain): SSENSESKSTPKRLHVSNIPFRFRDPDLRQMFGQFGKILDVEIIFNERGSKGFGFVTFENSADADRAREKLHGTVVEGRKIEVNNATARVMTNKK
`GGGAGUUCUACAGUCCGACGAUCGGACUCAGCAGGCUGGAGCUUGGGGCCUGGUGGACCAUCACCUGGUGUCUGUAGGUGGACCCGGUCUCCCACAGGUGACAUCAACCUGAGGGUGGCGUCUUUAGAGACAGUGGAAUUCUCGGGUGCCAA`: “RBNS enrichment (R)” 0.579.
For `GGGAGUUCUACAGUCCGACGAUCCAAAUGGUAGACUACUUGACCCCGUUCUCUAGCGUGAGUUUUCAUAGUGCCAUCUCCUCAUGAUUGUAGAAGCAGCUGAAUGAGUUUCUUCAGAUUUAAAAUGAAUAGCUUGGAAUUCUCGGGUGCCAA`, “RBNS enrichment (R)” read 0.383.
`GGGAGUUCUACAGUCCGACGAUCGUUAAAUUGGGGUAUGUGGUUUGAUUGAUAAAAAGUUACCUCUCAGUAUUUUGUGUCACUGAGAAGCUUUACAAUGGAUGCUUUUGAAACAAGUAUCAGCAAAAGGAUUUUGGAAUUCUCGGGUGCCAA`: “RBNS enrichment (R)” 1.21.
For `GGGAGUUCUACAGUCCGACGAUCGAAGUUAACUCACUAUAUUCGGAAACUUACUGGCCUAGAGAAUUUUAUCCCAGGCAUUCUUAGAUGGAAAACAAUACUUUUGUUUUUUCUUCUAAAUUGAAGCUUGUUAAUGGAAUUCUCGGGUGCCAA`, “RBNS enrichment (R)” read 0.442.
`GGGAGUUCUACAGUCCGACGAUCCUAGAUUUCUGUGUACACACACUUGAUUGUUCUGGAUGAAUGUCUUUUUUAAUACUCCGAAAAUUUCAUCAUCUAAGAAAAUGAUUCCAUACAAAUAACUCAGCACACAAUGGAAUUCUCGGGUGCCAA`: “RBNS enrichment (R)” 1.09.
For `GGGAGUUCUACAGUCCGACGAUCAUGUUAGGAUGGCCACGAAUGCUUGGUCAGAGUCCUUCCUUCCCUUGCUCAGCAGCGGACUUACUCCCAGCGCCUUCCCUCCCUCCUGUCCCUCCUGUCCCCUCACUGUCUGGAAUUCUCGGGUGCCAA`, “RBNS enrichment (R)” read 3.41.
For `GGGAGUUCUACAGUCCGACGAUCGAGGAGACCCUGUGUUUUCAGUGGAAUCAGAUCUUCCUCAGUUGGGGCCUUCCUUGUCCCCCCGUGGACUCUCCAAUGUGGGACCUCGGUCCUGGGCUCUCACCGGGGUCUGGAAUUCUCGGGUGCCAA`, “RBNS enrichment (R)” read 0.282.
`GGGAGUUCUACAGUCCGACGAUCCCAAAGAGAAUCUAAUUUUUUCAGUGGGUGAACUCAUCAUUGCUGGAACUGAAACUACAACCAAUGUGCUCCGCUGGGCAAUUCUUUUCAUGGCCCUUUAUCCUAAUAUUUGGAAUUCUCGGGUGCCAA` — result for “RBNS enrichment (R)”: 0.439.
Under “RBNS enrichment (R)”, `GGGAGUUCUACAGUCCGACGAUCAAAAGGAAAAUCAAAAUCACUUCUAAUUACAAAAUGUGCUGUUUUGGUGGGGUGGGCAAUCAGAUUAUUAUAGUUGAUGACUGUACCAAAGAUCUGGAAUGGGGGCCACCUGGAAUUCUCGGGUGCCAA` is recorded as 1.25.
`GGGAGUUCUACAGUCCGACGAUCAGUUGAGAGACCAGGCAACCCACUGUUGAGAACCACUCUCAGUCAGCUGGUAGGGACAUUACACCAGGUACCCCGUGGCUAUCCCUACCCAGUGUCGGUGGCCCGGCACAUGGAAUUCUCGGGUGCCAA`: “RBNS enrichment (R)” 0.195.
Under “RBNS enrichment (R)”, `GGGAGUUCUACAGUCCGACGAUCGUACACUUGGCUUCCCCCUGCAACUGCAGGGCCGCUUCUGGGGCCUGGACCACCAUGGGGAGGAAGAGUCCCACUCAUUACAAAUAAAGAAAGGUGGUGUGAGCCUGGGAUGGAAUUCUCGGGUGCCAA` is recorded as 0.496.
Under “RBNS enrichment (R)”, `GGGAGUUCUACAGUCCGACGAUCCUGUGGGGAGCAGCAUGGGCAAGGAAGACACAGACUCGCAUUACCCUUGGUCACUGUGAUUUCUGUUUUGUUUAAAAAAUUCUUACAAACCUCAGGAAAACUGUGCCCUCUGGAAUUCUCGGGUGCCAA` is recorded as 0.724.

Study 5 — method: universal PBM; molecule type: double-stranded DNA, one strand shown; matrix: in vitro; tested at: 600 nM; reading: higher = stronger binding
Target: Sal-like protein 4, full length isoform A (SALL4, Homo sapiens, UniProt Q9UJQ4, residues 1-1053)
Sequence of UniProt Q9UJQ4 (whole entry, looked up): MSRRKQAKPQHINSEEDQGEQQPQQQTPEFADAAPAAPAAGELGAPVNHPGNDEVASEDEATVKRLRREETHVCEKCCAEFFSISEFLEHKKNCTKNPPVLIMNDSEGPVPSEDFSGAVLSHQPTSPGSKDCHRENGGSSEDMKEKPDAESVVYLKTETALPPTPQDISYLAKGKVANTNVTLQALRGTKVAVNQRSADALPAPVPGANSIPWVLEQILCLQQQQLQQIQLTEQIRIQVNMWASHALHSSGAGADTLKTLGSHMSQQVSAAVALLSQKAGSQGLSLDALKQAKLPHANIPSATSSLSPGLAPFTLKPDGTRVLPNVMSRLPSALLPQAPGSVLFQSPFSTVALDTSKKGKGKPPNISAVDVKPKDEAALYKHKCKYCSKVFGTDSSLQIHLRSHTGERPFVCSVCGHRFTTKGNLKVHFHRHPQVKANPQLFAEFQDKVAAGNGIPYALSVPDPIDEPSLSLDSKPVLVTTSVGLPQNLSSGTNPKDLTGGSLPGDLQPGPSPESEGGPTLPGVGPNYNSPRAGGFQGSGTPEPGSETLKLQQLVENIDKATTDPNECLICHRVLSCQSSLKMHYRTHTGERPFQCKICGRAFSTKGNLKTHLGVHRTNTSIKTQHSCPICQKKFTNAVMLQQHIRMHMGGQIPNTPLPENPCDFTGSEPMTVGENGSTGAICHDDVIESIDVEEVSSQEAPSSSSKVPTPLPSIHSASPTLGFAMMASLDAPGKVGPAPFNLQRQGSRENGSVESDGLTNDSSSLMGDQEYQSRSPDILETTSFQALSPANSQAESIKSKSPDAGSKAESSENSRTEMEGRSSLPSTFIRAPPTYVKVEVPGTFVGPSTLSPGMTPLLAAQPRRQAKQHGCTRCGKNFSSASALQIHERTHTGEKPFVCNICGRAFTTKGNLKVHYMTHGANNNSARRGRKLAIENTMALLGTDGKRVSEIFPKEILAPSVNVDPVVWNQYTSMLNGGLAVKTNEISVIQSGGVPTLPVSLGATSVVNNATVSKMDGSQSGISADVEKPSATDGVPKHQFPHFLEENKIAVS
Setting: 8-mer, flanks averaged, mean of replicates
For `GGATACTA`, the E-score was 0.016.
For `CGCACGGC`, the E-score was -0.361.
For `TCCGGTAA`, the E-score was 0.0345.
With `GATATCAA` the E-score was 0.273.
The E-score of `CGAGCCAG` is reported as -0.236.
The E-score of `ATCAGTGA` is reported as 0.0156.
For `CTCGAACC`, the E-score was -0.215.
The E-score of `CCAGAGCA` is reported as -0.0902.
`CACCGATC` gave an E-score of -0.233.
For `TCATTGCA`, the E-score was 0.0868.
For `AACCCAGG`, the E-score was -0.271.
`CCTCTGTC` gave an E-score of -0.226.
`CGTTAGCA` gave an E-score of 0.0887.
With `TGCACTAA` the E-score was 0.141.
`AGTGCGAT` has an E-score of 0.0513.
The E-score of `AACCACAT` is reported as 0.192.
`CATGTAAA` has an E-score of 0.0906.
For `GAGCTTGA`, the E-score was -0.0696.
The E-score of `AAGGCGCA` is reported as -0.228.
With `AGCAGTAA` the E-score was 0.079.
`CCCACCAA` gave an E-score of -0.0938.
For `GCCCCTCC`, the E-score was -0.284.
The E-score of `AACGTCGC` is reported as -0.192.
The E-score of `CCCCGACC` is reported as -0.366.
`CCGGAAGA` has an E-score of -0.0908.

Repeated from above (study 3):
The E-score of `GAATTCAA` is reported as -0.199.
The E-score of `CCCTTCTA` is reported as -0.0826.
`AAAGTGCA` has an E-score of -0.143.
`CATACGAC` has an E-score of -0.106.
`GATCTTGA` has an E-score of -0.17.
With `GATCTTCA` the E-score was -0.0997.
For `AGGCGAAC`, the E-score was 0.119.
